Experimental data of several laboratories.
Numbered parts are unrelated; each lists some results of a single study.

Series 1
Target: Histone acetyltransferase KAT6A, both winged helices, GST fusion (KAT6A, Homo sapiens, UniProt Q92794, residues 1-181)
Technique: protein binding microarray
Molecule type: double-stranded DNA, one strand shown
Sample: in vitro
Tested at: not given
Setting: 8-mer, flanks averaged, mean of 2 arrays, mostly near background
Baseline: not given
Direction: higher = stronger binding
Construct (chain): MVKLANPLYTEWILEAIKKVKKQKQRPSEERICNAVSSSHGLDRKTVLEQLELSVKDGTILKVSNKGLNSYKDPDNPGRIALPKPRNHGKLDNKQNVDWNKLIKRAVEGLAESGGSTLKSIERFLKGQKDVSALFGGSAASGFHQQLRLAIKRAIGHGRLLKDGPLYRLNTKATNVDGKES
For `CGAATTGA`, the E-score was -0.134.
`CACTACTC` has an E-score of -0.0582.
`CGGAAGAA` gave an E-score of 0.152.
`CTGTCAGC` gave an E-score of -0.0191.
For `GCTCTTCA`, the E-score was -0.0586.
With `CAGCCCAC` the E-score was -0.128.
`CCGGCTTC` gave an E-score of 0.223.
`CGTACTTA` gave an E-score of 0.126.
For `GAGTTACC`, the E-score was -0.114.
The E-score of `GCTGAAGC` is reported as 0.024.
`CTGCCTTA` gave an E-score of -0.162.
The E-score of `AGATATTA` is reported as -0.0138.
For `CTATGCCC`, the E-score was -0.0946.
For `TGCCAGCA`, the E-score was -0.139.
For `CCATGCAG`, the E-score was -0.1.
With `GAAAGTTA` the E-score was -0.0918.
`GCACGGCA` has an E-score of 0.232.
`CTTCTTGC` has an E-score of 0.097.
With `ACAAGCAC` the E-score was 0.0945.
For `AGAGCTTA`, the E-score was -0.155.
`AGAAGGAC` has an E-score of -0.201.
`CAGCGGCG` gave an E-score of 0.299.
With `AGCTATCG` the E-score was -0.0773.
The E-score of `ACCATTGC` is reported as 0.00211.

Series 2
Target: UBE2V2 UBC core domain (UniProt Q15819)
Technique: yeast two-hybrid
Sample: yeast
Setting: mostly zero background
Baseline: not given
Direction: higher = stronger interaction
B1: TRIM10 RING domain (UniProt Q9UDY6); chain SVTSLADEVNCPICQGTLREPVTIDCGHNFCRACLTRYCEIPGPDLEESPTCPLCKEPFRPGSFRP
B2: ANKIB1 RING domain (UniProt Q9P2G1); chain LSPGDLDTSLCDICMCSISVFEDPVDMPCGHDFCRGCWESFLNLKIQEGEAHNIFCPAYDCFQLVPVDIIE
B3: NSMCE1 RING domain (UniProt Q8WV22); chain RETYPDAVKICNICHSLLIQGQSCETCGIRMHLPCVAKYFQSNAEPRCPHCNDYWPHEIPKV
B4: MSL2 RING domain (UniProt Q9HCI7); chain LLPYFRQSLSCCVCGHLLQDPIAPTNSTCQHYVCKTCKGKKMMMKPSCSWCKDYEQFEENKQ
B5: UBE4A RING domain (UniProt Q14139); chain LQQQEEETYADACDEFLDPIMSTLMCDPVVLPSSRVTVDRSTIARHLLSDQTDPFNRSPLTMDQIRPNTELKEKIQRWLAERKQQKEQLE
B6: TRIM15 RING domain (UniProt Q9C019); chain SLKVVHELPACTLCAGPLEDAVTIPCGHTFCRLCLPALSQMGAQSSGKILLCPLCQEEEQAETPMA
B7: RNF32 RING domain (UniProt Q9H0A6); chain SLLQGDSVQPCPICKEEFELRPQVLLSCSHVFHKACLQAFEKFTNKKTCPLCRKNQYQTRVIH
B8: RNF112 RING domain (UniProt Q9ULX5); chain QPMAPRELPTCSICLERLRDPISLDCGHDFCIRCFSTHRLPGCEPPCCPECRKICKQKRGLR
B9: TRIM3 RING domain (UniProt O75382); chain VQPMDKQFLVCSICLDRYQCPKVLPCLHTFCERCLQNYIPAQSLTLSCPVCRQTSILPEQGV
B10: TRIM55 RING domain (UniProt Q9BYV6); chain TMDNLEKQLICPICLEMFTKPVVILPCQHNLCRKCASDIFQASNPYLPTRGGTTMASGGRFRCPSCRHEVVLDRHG
B11: RNF4 RING domain (UniProt P78317); chain TGLRPSGTVSCPICMDGYSEIVQNGRLIVSTECGHVFCSQCLRDSLKNANTCPTCRKKINHKRYHP
B12: RNF150 RING domain (UniProt Q9ULK6); chain DKETESDFDNCAVCIEGYKPNDVVRILPCRHLFHKSCVDPWLLDHRTCPMCKMNILKALGIP
Residues (chain): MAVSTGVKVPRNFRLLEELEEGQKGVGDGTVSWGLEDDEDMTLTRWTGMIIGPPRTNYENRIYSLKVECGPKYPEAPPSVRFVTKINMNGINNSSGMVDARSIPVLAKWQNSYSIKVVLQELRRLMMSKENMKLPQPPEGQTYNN
Under “lacZ reporter activity”, `B1 (TRIM10 RING domain)` is recorded as 0.
`B2 (ANKIB1 RING domain)`: “lacZ reporter activity” 0.
For `B3 (NSMCE1 RING domain)`, “lacZ reporter activity” read 0.
Under “lacZ reporter activity”, `LKQVSIRENCCSLCCDEVADTQLKPCGHSDLCMDCALQLETCPLCRKEIVSRIRQI (RSPRY1 RING domain (UniProt Q96DX4))` is recorded as 0.
For `B4 (MSL2 RING domain)`, “lacZ reporter activity” read 0.
Under “lacZ reporter activity”, `B5 (UBE4A RING domain)` is recorded as 0.
Under “lacZ reporter activity”, `B6 (TRIM15 RING domain)` is recorded as 0.
For `B7 (RNF32 RING domain)`, “lacZ reporter activity” read 0.
Under “lacZ reporter activity”, `B8 (RNF112 RING domain)` is recorded as 0.
For `ISNDSETLEECMVCSDMKRDTLFGPCGHIATCSLCSPRVKKCLICKEQVQSRTKIE (MIB1 RING domain (UniProt Q86YT6))`, “lacZ reporter activity” read 0.
For `KIKDLNEHIVCCLCAGYFVDATTITECLHTFCKSCIVKYLQTSKYCPMCNIKIHETQPLL (PCGF1 RING domain (UniProt Q9BSM1))`, “lacZ reporter activity” read 0.
`B9 (TRIM3 RING domain)`: “lacZ reporter activity” 0.
Under “lacZ reporter activity”, `B10 (TRIM55 RING domain)` is recorded as 0.
`B11 (RNF4 RING domain)` — result for “lacZ reporter activity”: 0.
For `B12 (RNF150 RING domain)`, “lacZ reporter activity” read 0.

Series 3
Target: Prothrombin, mature alpha-thrombin (F2, Homo sapiens, UniProt P00734)
Technique: aptamer microarray, sandwich
Molecule type: DNA with 2'F-ANA
Sample: in vitro
Tested at: 200 nM
Setting: whole 15-mer aptamer, many near background
Together with: Cy3 exosite-II aptamer, 400 nM
Direction: higher = stronger binding
Strand: GGTTGGTGTGGTTGG
`2'F-ANA at 3 4 7 11 12 14 15` — result for “mean fluorescence intensity”: 433 a.u.
`2'F-ANA at 3 5 10 15` — result for “mean fluorescence intensity”: 62.6 a.u.
Under “mean fluorescence intensity”, `2'F-ANA at 1 4 5 8 10 11 12 14` is recorded as 53.5 a.u.
`2'F-ANA at 2 3 4 5 7 8 9 15` — result for “mean fluorescence intensity”: 117 a.u.
`2'F-ANA at 5 6 7 10 11 12 15` — result for “mean fluorescence intensity”: 107 a.u.
For `2'F-ANA at 4 6 10 11 12 15`, “mean fluorescence intensity” read 90.5 a.u.
Under “mean fluorescence intensity”, `2'F-ANA at 2 3 4 6 7 8 10 12 13 14` is recorded as 170 a.u.
`2'F-ANA at 1 2 3 4 7 8 9 12 15`: “mean fluorescence intensity” 384 a.u.
`2'F-ANA at 2 3 4 7 9 12 15` — result for “mean fluorescence intensity”: 811 a.u.
`2'F-ANA at 3 4 6 7 8 9 10 11 12 15`: “mean fluorescence intensity” 266 a.u.
`2'F-ANA at 2 6 7 11 14 15` — result for “mean fluorescence intensity”: 112 a.u.
For `2'F-ANA at 2 3 4 5 7 9 10 14 15`, “mean fluorescence intensity” read 50.7 a.u.
`2'F-ANA at 1 4 5 6 7 8 10 12 15`: “mean fluorescence intensity” 60.6 a.u.
For `2'F-ANA at 1 2 3 4 5 9 10 11 14`, “mean fluorescence intensity” read 45.5 a.u.
Under “mean fluorescence intensity”, `2'F-ANA at 2 3 4 10 11 12 13 15` is recorded as 271 a.u.
`2'F-ANA at 1 4 7 8 13` — result for “mean fluorescence intensity”: 111 a.u.
`2'F-ANA at 1 3 7 8 9 11 12 13 14`: “mean fluorescence intensity” 124 a.u.
Under “mean fluorescence intensity”, `2'F-ANA at 3 5 7 10 11 12 14` is recorded as 51.4 a.u.
`2'F-ANA at 3 4 5 6 8 10 11 13 15`: “mean fluorescence intensity” 45.1 a.u.
Under “mean fluorescence intensity”, `2'F-ANA at 1 2 3 4 11 14` is recorded as 64.1 a.u.
For `2'F-ANA at 2 4 5 7 8 10 11 14`, “mean fluorescence intensity” read 45.9 a.u.
Under “mean fluorescence intensity”, `2'F-ANA at 1 3 5 7 11 13 14` is recorded as 72.2 a.u.
For `2'F-ANA at 2 5 7 9 10 14 15`, “mean fluorescence intensity” read 47 a.u.
`2'F-ANA at 2 8 9 10 11 13 14`: “mean fluorescence intensity” 80.9 a.u.
`2'F-ANA at 2 5 6 7 10 11 13 14` — result for “mean fluorescence intensity”: 45 a.u.

Series 4
Target: Fragile X messenger ribonucleoprotein 1, C-terminal low-complexity region (Fmr1, Mus musculus, UniProt P35922)
Technique: RNA Bind-n-Seq
Molecule type: RNA
Sample: in vitro
Tested at: 200 nM
Setting: whole 134-nt RNA, ends assumed
Together with: 150 mM KCl
Baseline: input library
Direction: higher = stronger binding
With `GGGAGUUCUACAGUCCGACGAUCUCCUCAAGUCCUGUGCUACACAUCGUAUGUACCGAAUCGGAAAGGUGGAGGAAAGUAUUAUGUUACGCCGUUCGGAUCUGCACUUCCAGCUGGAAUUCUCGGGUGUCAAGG` the log2 enrichment was -0.53.
`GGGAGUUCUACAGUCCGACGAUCACCAUGCAGGUGGGCAUCUUUGGGAAGUGGGGCAAGGGGGGGAUAGGGAGGGGGGUAACACUUUGGGAACAGGUGGUCCCAGGUCAUUUCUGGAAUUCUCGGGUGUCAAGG` gave a log2 enrichment of 0.69.
The log2 enrichment of `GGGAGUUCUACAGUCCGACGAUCACCAUGCAGGUGGGCAUCUUUGAAAAGUGGGGCAAGGGGGGGAUAGGGAGGGGGGUAACACUUUGGGAACAGGUGGUCCCAGGUCGUUUCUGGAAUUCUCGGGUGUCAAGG` is reported as 0.937.
`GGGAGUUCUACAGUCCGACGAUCUGGCCCUGGUGGCAUGCGGGGAGGAAGAGGUGGCCUCAUGGAUCGUGGUGGUCCCGGUGGAAUUUUCAGAGGUGGCCGUGGUGGAGACAGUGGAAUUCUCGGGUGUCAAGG` has a log2 enrichment of 0.185.
The log2 enrichment of `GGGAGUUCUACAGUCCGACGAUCAAGUCCUGUGCUACACAUCGUAUGUACCGAAUCGGGGCCCGGGGCCCGGGGCCCGGGAAAGUAUUAUGUUACGCCGUUCGGAUCUGCACUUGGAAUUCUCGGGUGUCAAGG` is reported as -0.849.
`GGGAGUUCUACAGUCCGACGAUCACCCUGCAGGUGGGCAUCUUUGGGAAGUGGGGCAAGGGGGGGAUAGGGAGGGGGGUAACACUUUGGGAACAGGUGGUCCCAGGUCGUUUCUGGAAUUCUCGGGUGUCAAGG` gave a log2 enrichment of 1.04.
For `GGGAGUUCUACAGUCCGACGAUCUCAAGUCCUGUGCUACACAUCGUAUGUACCGAAUCGGGAAAGGGAAAGGGUGGGAAAGUAUUAUGUUACGCCGUUCGGAUCUGCACUUCCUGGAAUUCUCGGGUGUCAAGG`, the log2 enrichment was 1.09.
`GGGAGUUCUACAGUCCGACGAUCCCUCAAGUCCUGUGCUACACAUCGUAUGUACCGAAUCGGGCCGGCCGGGCCGGAAAGUAUUAUGUUACGCCGUUCGGAUCUGCACUUCCAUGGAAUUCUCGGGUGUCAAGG` has a log2 enrichment of -0.121.
The log2 enrichment of `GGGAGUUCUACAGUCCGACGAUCAAGUCCUGUGCUACACAUCGUAUGUACCGAAUCGGGAGGGAAAAAGGGAAAAAGGGAAAGUAUUAUGUUACGCCGUUCGGAUCUGCACUUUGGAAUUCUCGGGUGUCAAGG` is reported as 0.346.
`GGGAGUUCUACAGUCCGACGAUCACCAUGCAGGUGGGCAUCUUUGGGAAGUGGGGCAAGGGGGGGAUAGGGAGGGGGGUAACACUUUGGGAACAGGUGGUCACAGGUCGUUUCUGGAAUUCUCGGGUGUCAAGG` gave a log2 enrichment of 0.783.
`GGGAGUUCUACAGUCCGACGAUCUGGAAGGUGGAUUUUGUUUAUUUUUUUAGCUCAUUUCCAGGGGUGGGAAUUUUUUUUUAAUAUGUGUCAUGAAUAAAGUUGUUUUUGAAAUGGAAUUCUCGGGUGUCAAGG` gave a log2 enrichment of 0.0989.
`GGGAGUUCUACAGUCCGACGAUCACCAUGCAGGUGGGCAUCUUUGGGAAGUGGGGCAAGGGGAGGAUAGGGAGGGGGGUAACACUUUGGGAACAGGUGGUCCCAGGUCGUUUCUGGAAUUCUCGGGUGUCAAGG` gave a log2 enrichment of 0.703.
`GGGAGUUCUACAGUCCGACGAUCGUCCUGUGCUACACAUCGUAUGUACCGAAUCGGGGUUUUUUUGGGGUGGGGUUUGGGGAAAGUAUUAUGUUACGCCGUUCGGAUCUGCACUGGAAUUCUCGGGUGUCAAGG` has a log2 enrichment of 0.797.
`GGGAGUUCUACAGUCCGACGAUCCUCAAGUCCUGUGCUACACAUCGUAUGUACCGAAUCGGGGAGGGAGGGAGGGGAAAGUAUUAUGUUACGCCGUUCGGAUCUGCACUUCCAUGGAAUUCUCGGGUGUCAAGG` has a log2 enrichment of 1.24.
